# Assay results from different studies.
# Lines come from different studies, so protocols differ. ± gives the spread as reported.
Compound,target or system,assay,system,setting,scale,quantity,value
COC(=O)[C@@H]1C(C=Nc2ccccc2O)=Cc2cc3c(cc2[C@H]1c1cc(OC)c(OC)c(OC)c1)OCO3,Leishmania infantum,iRFP fluorescence,"mouse splenocytes infected, amastigote, iRFP, ex vivo splenic explant",48 h,,EC50,9.4 ± 0.7 µM
O=S(=O)(c1ccc(Cl)cc1)N1CCN(c2ccc(F)cc2)CC1,Saccharomyces cerevisiae,"cell growth, doubling time",wild type,,,IC50,> 200 µM
CC(C)[C@H](NC(=O)N[C@@H](CCCCN)C(=O)N[C@@H](CNC(=O)CCCCCCCCCCS)C(=O)NCCCNC(C[C@H]1O[C@@H](n2ccc(=O)[nH]c2=O)[C@H](O)[C@@H]1O)C(=O)O)C(=O)O (stereo partly drawn),Pseudomonas aeruginosa,growth,PAO1,,,IC50,> 100 µg/mL
COc1cc([C@@H]2c3cc4c(cc3[C@@H](C=C(C)C)[C@H]3COC(=O)[C@H]23)OCO4)cc(OC)c1OC,Leishmania infantum,Alamar Blue,HepG2,,relative to: CC50 HepG2 over EC50 amastigotes,selectivity index,> 10.8
O=[N+]([O-])c1cc(CN2CCN(c3ccccc3F)CC2)ccc1Cl,Saccharomyces cerevisiae,"cell growth, doubling time",SEC14 -136 allele,Sec14 reduced ~7-fold,,IC50,8.1 ± 0.8 µM
CCOC(=O)C1=C(C)NC2=C(C(=O)CC(C)(C)C2)C1c1ccc(OCC(=O)NN=Cc2cccc(C=O)c2)cc1OCC(=O)NN=Cc1cccc(C=O)c1 (stereo not drawn),Escherichia coli,,ATCC 25922,"concentration not given, 24 h",,inhibition zone diameter,4 ± 0.01 mm
O=C(CCN(CCC(=O)N[C@@H](Cc1c[nH]c2ccccc12)C(=O)O)C(=O)CCN(CCC(=O)N(CCC(=O)N[C@@H](Cc1c[nH]c2ccccc12)C(=O)O)CCC(=O)N[C@@H](Cc1c[nH]c2ccccc12)C(=O)O)C(=O)CCOCC(COCCC(=O)N(CCC(=O)N(CCC(=O)N[C@@H](Cc1c[nH]c2ccccc12)C(=O)O)CCC(=O)N[C@@H](Cc1c[nH]c2ccccc12)C(=O)O)CCC(=O)N(CCC(=O)N[C@@H](Cc1c[nH]c2ccccc12)C(=O)O)CCC(=O)N[C@@H](Cc1c[nH]c2ccccc12)C(=O)O)(COCCC(=O)N(CCC(=O)N(CCC(=O)N[C@@H](Cc1c[nH]c2ccccc12)C(=O)O)CCC(=O)N[C@@H](Cc1c[nH]c2ccccc12)C(=O)O)CCC(=O)N(CCC(=O)N[C@@H](Cc1c[nH]c2ccccc12)C(=O)O)CCC(=O)N[C@@H](Cc1c[nH]c2ccccc12)C(=O)O)COCCC(=O)N(CCC(=O)N(CCC(=O)N[C@@H](Cc1c[nH]c2ccccc12)C(=O)O)CCC(=O)N[C@@H](Cc1c[nH]c2ccccc12)C(=O)O)CCC(=O)N(CCC(=O)N[C@@H](Cc1c[nH]c2ccccc12)C(=O)O)CCC(=O)N[C@@H](Cc1c[nH]c2ccccc12)C(=O)O)N[C@@H](Cc1c[nH]c2ccccc12)C(=O)O,human adenovirus 2,viral replication,HEL,,,EC50,2.7 ± 0.19 µM
O=[N+]([O-])c1cc(CN2CCN(c3ccc(Cl)cc3)CC2)ccc1Cl,Saccharomyces cerevisiae,"cell growth, doubling time",wild type,,,IC50,> 200 µM
Cc1cc(SCc2sc(-c3ccc4cnn(C)c4c3)nc2C)ccc1OCC(=O)O,HEK293T,,,18 h,,CC50,> 100 µM
COc1cc([C@@H]2c3cc4c(cc3[C@@H](OC(C)C)[C@H]3COC(=O)[C@H]23)OCO4)cc(OC)c1OC,Leishmania infantum,,"promastigote, iRFP",,,EC50,> 100 µM
COc1ccc2c(c1)C1CC1(C(=O)N1C3CNCC1C3)Cn1c-2c(C2CCCCC2)c2ccc(C(=O)NS(=O)(=O)N(C)C)cc21 (stereo not drawn),hepatitis C virus,"viral replication, FRET","Huh-7, genotype 1b Con1 replicon",,,EC50,0.08 µM
Cc1cc(SCc2sc(-c3ccc(F)cc3)nc2C)ccc1OCC(=O)O,HEK293T,,,18 h,,CC50,not toxic

# Some of these lines once more:
Compound,target or system,assay,system,setting,scale,quantity,value
COc1ccc2c(c1)C1CC1(C(=O)N1C3CNCC1C3)Cn1c-2c(C2CCCCC2)c2ccc(C(=O)NS(=O)(=O)N(C)C)cc21 (stereo not drawn),hepatitis C virus,"viral replication, FRET","Huh-7, genotype 1b Con1 replicon",,,EC50,0.08 µM
